Measured values from different studies.
Numbered parts are unrelated; each lists some results of a single study. Changes are numbered by the printed parent chain.

Series 1 — method: protein binding microarray; molecule type: double-stranded DNA, one strand shown; medium: in vitro; tested at: not given; relative to: not given; direction: higher = stronger binding
Target: Histone acetyltransferase KAT6A, winged helix 2, GST fusion (KAT6A, Homo sapiens, UniProt Q92794, residues 85-181)
Setting: 8-mer, flanks averaged, mean of 2 arrays, mostly near background
Construct (chain): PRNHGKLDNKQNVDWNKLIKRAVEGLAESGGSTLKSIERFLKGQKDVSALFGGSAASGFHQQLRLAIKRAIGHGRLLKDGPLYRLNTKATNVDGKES
Sequence	E-score
CACGTCTG	-0.0261
GTTGGTGA	0.081
CCTCGCTC	0.295
GGGATTCA	-0.0866
CGTGATAC	-0.0455
AGCGAATC	0.0425
ATATCCAC	0.0605
AACCTCCG	-0.00847
CACCTCGA	0.0343
GGAACTAC	-0.0164
GGATTGAA	0.112
CAACGGTC	0.0304
TAGAGGAA	-0.0577
ATCAGACA	-0.0604
GCCACTGA	0.111
CACTCTCG	-0.00337
GGCGATAC	0.03
ATGTTGTG	0.0648
CAGTACGA	0.00553

Series 2 — method: universal PBM; molecule type: double-stranded DNA, one strand shown; medium: in vitro; tested at: not given; direction: higher = stronger binding
Target: Sal-like protein 4, full length isoform B (SALL4, Homo sapiens, UniProt Q9UJQ4-2, residues 1-616)
Setting: 8-mer, flanks averaged, mean of replicates
Sequence	E-score
AAAGCCCC	-0.262
CGTGGTAG	-0.288
CAGTTTTC	0.0861
AGAACCAG	-0.101
CGTGGTTC	-0.217
AGTCCCTC	-0.203
ACTTGAGG	-0.139
GATGGCAC	-0.304
AGCCTAAC	-0.148
ATGGATTG	0.146
ACGGAAAG	-0.0165
CCCTCTAA	-0.127
CGCCGCTC	-0.365
TATAGCCA	0.142
GCCATAAC	0.135
AAGGCAGC	-0.203
AATGGCAT	0.128
AATGTCGG	-0.0581
CGGATCGC	-0.188
CCACAGAG	-0.101

Series 3 — method: protein-binding microarray; molecule type: double-stranded DNA, one strand shown; medium: in vitro; tested at: 2540 nM top; setting: 60-bp whole probe; together with: salmon DNA 0.4 mg/ml; relative to: random background probes; direction: higher = stronger binding; shared flanks, not repeated: GCCTAGCAC … GTCTTGATTCGCTTGACGCTGCTG
Target: Interferon regulatory factor 3, full length, phosphomimetic (IRF3, Homo sapiens, UniProt Q14653, residues 1-427, S386D/S396D/S398D/S402D/T404D/S405D)
Construct (chain): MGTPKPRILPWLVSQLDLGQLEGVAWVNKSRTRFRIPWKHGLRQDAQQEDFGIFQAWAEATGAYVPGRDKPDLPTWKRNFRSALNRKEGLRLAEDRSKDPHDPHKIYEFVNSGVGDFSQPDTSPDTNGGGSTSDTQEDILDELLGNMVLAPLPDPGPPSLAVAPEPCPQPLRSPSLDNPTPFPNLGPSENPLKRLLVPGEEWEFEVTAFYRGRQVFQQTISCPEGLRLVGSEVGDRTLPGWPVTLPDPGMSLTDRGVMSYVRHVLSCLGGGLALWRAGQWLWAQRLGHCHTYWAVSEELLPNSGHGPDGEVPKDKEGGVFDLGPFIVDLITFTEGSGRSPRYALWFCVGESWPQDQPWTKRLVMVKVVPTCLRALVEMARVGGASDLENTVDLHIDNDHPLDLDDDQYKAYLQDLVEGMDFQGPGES
Sequence	fitted relative affinity [z-score]
TTTTTTTTTTTTTCTGATCCGTGCTAG	1.95
TCAGATTTCAGGAATTGAACTGTGCTA	0.523
TCATATATTATATATACAACTGTGCTA	0.714
GACGATTTCGGCACTGGAGACGTGCTA	1.04
GTAGGTTTCCTTATCCTTTAGTGCTAG	8.47
TTAGATCTCAGTATAGATTAGTGCTAG	0.176
TCAATTATATATATCATACTGTGCTAG	0.766
TTAGGTTTGGGGTTTCGGTTAGTGCTA	2.27
GACGGACTGGACGATCGGGACGTGCTA	-0.342
GGCGATTTCGGGTTTCGAGACGTGCTA	2.75
TTTGCTTTCCTTCATGCACTGTGCTAG	3.02
GACGGTATCAGACTGGAGACGTGCTAG	1.49
CACTTTTCCTACATCAGCTGGTGCTAG	2.45
TTAGGTTTCAGTTCCGATTAGTGCTAG	6.42
TTAGATCTCAGACTGGCTTAGTGCTAG	-0.218
GGCTTGACGTCATCCCCTTGGTGCTAG	-0.899
GACGATTTTAGTCTCGAGACGTGCTAG	0.941
TTAGGTATCCTACTGCTATAGTGCTAG	2.78
GTTCTTTTCAGTCCCCTCTTGTGCTAG	2.13
TTAGGACTGGACTTTCGGATAGTGCTA	0.528
TGAACTTGGAATTTCCCTCTGTGCTAG	0.64
GACGGTATCGGGACTGAGGACGTGCTA	1.84

Series 4 — target: ATF7, bZIP domain (human); method: DHFR protein complementation; medium: yeast; relative to: wild-type JUN-FOS pair; direction: higher = stronger binding
Setting: single substitutions, most at no-binding floor
Starting sequence: JUN, bZIP domain (human); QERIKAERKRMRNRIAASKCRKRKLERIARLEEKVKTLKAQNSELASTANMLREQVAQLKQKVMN; partner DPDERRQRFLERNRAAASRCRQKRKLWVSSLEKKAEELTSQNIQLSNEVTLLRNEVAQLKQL
Variant	binding fitness [natural log]
E44H	-1.06
L52Y	-1.41
A57N	-1
L31T	-1.4
S47P	-1.5
Q55T	-1.06
Q41L	-1.09
K34P	-1.46
S43N	-0.842
K39T	-0.756
L45V	-1.41
Q41T	-1.02
L38R	-1.43
E44R	-1.06
I28C	-1.26
Q41M	-1.01
R53T	-1.2
N42I	-1.45
T37K	-0.921
S47E	-0.615
L52C	-1.53
V56A	-1.27
K36T	-1.17
K36A	-0.686
L52G	-1.5

Series 5 — target: CCNA1, cyclin fold, Cln2 fusion (human); method: yeast growth competition, sequencing; medium: yeast; setting: weak parent motif; relative to: not given; direction: higher = stronger binding
Starting sequence: SLBP docking peptide (human); ARYKRKLLINDFG
Variant	normalised enrichment score
ARYKRKLLKNDFG [I9K]	0.351
YRYKRKLLINDFG [A1Y]	-0.145
ARYKRKLMINDFG [L8M]	0.487
IRYKRKLLINDFG [A1I]	0.0731
ARYKRFLLINDFG [K6F]	0.097
ARYKRKLLINDFH [G13H]	0.351
ARYKRKFLINDFG [L7F]	0.406
ATYKRKLLINDFG [R2T]	0.859
AFYKRKLLINDFG [R2F]	0.307
ARYKTKLLINDFG [R5T]	0.189
ARYKRKTLINDFG [L7T]	0.0897
HRYKRKLLINDFG [A1H]	0.316
ARYKNKLLINDFG [R5N]	0.224
CRYKRKLLINDFG [A1C]	0.0969
AMYKRKLLINDFG [R2M]	0.11
ARYKRKLLIKDFG [N10K]	0.335
ARYKRKLLENDFG [I9E]	0.274
ARYKRKLCINDFG [L8C]	0.143

Series 6 — method: DHFR PCA, deep sequencing; medium: yeast; together with: (+)-ABA 0.0091 µM; relative to: wild-type fitted maximum; direction: higher = stronger binding
Target: ABI1, truncated, D143A, DHFR fusion (Arabidopsis thaliana)
Setting: methotrexate growth selection, single substitutions
Starting sequence: PYL1, truncated, DHFR fusion (Arabidopsis thaliana); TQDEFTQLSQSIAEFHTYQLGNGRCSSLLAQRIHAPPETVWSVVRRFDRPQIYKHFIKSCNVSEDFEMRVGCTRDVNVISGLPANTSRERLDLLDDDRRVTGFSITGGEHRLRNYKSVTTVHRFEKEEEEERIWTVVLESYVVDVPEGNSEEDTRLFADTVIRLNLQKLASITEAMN; partner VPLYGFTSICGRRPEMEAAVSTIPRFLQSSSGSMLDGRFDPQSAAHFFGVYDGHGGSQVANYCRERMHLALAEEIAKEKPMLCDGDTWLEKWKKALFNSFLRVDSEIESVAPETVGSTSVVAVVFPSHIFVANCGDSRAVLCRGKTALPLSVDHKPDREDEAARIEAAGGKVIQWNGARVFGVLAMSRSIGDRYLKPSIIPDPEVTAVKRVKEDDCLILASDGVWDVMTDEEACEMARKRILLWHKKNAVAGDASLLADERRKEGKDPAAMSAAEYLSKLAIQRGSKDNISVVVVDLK
Variant	relative binding score [%]
L29G	-0.0468
R123M	2.72
M176V	7.62
G107P	-9.23
Q10I	-0.698
T101F	65.9
H110I	-0.303
D65A	9.26
Q51H	12.3
G148L	-1.99
T106I	101
L138V	4.32
D48V	0.172
K168T	0.353
S59L	0.463
L94T	-6.61
V62D	6.7
Y53T	3.61
